Published values of several laboratories.
Each line is one published result; not all experiments were run side by side. “And” joins repeats or separate records; there may be more than shown. Numbers after ± are the reported error.
ABL1: Tyrosine-protein kinase ABL1 (ABL1, Homo sapiens, UniProt P00519)
Sequence of UniProt P00519 (whole entry, looked up): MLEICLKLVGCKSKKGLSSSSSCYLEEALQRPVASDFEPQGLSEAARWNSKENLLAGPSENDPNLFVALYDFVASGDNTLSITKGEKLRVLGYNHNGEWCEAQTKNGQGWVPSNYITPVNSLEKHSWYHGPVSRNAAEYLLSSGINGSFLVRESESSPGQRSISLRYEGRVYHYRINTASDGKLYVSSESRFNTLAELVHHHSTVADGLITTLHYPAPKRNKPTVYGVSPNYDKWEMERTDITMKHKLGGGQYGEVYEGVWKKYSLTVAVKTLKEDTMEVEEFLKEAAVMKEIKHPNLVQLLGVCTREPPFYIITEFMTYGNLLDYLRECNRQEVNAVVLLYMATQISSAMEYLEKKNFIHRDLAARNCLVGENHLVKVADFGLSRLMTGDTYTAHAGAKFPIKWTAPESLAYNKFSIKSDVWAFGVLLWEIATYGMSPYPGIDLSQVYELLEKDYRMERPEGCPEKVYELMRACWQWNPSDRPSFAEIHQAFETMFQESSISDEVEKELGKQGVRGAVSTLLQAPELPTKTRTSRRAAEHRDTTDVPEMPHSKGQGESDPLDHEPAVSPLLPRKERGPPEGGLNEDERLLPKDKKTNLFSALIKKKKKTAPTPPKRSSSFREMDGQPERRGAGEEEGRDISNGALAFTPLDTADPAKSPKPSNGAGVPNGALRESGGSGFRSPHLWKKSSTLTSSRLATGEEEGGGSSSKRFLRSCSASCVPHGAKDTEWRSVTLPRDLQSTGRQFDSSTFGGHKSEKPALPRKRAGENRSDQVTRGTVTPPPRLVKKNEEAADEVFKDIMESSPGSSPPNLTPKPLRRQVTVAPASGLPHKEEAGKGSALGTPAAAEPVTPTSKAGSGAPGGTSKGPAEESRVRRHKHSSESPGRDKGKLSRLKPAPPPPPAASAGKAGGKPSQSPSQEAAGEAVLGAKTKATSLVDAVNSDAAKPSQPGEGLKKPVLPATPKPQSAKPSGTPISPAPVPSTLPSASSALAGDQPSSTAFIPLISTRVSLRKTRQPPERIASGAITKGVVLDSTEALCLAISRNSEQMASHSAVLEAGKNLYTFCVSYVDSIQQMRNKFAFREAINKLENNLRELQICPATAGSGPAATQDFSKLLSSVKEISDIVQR
Sequence of UniProt P30872 (whole entry, looked up): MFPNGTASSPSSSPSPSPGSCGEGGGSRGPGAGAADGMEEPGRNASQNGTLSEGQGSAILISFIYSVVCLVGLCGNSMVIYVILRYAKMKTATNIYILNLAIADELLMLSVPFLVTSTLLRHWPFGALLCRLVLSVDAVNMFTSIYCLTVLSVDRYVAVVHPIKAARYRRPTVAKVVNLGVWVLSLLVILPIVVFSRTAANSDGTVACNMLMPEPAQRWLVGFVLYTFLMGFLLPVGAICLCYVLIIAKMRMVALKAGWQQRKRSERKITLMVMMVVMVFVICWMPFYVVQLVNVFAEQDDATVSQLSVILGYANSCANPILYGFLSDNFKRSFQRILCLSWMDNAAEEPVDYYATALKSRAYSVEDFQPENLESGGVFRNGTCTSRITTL
Sequence of UniProt P15428 (whole entry, looked up): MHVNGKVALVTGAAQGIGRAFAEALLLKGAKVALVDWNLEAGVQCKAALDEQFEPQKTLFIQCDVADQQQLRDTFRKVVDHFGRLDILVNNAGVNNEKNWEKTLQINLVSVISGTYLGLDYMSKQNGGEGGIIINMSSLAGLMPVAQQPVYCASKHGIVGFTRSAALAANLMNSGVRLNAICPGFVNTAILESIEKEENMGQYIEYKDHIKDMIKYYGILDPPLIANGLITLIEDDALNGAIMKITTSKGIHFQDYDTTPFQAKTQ
Sequence of UniProt Q92830 (whole entry, looked up): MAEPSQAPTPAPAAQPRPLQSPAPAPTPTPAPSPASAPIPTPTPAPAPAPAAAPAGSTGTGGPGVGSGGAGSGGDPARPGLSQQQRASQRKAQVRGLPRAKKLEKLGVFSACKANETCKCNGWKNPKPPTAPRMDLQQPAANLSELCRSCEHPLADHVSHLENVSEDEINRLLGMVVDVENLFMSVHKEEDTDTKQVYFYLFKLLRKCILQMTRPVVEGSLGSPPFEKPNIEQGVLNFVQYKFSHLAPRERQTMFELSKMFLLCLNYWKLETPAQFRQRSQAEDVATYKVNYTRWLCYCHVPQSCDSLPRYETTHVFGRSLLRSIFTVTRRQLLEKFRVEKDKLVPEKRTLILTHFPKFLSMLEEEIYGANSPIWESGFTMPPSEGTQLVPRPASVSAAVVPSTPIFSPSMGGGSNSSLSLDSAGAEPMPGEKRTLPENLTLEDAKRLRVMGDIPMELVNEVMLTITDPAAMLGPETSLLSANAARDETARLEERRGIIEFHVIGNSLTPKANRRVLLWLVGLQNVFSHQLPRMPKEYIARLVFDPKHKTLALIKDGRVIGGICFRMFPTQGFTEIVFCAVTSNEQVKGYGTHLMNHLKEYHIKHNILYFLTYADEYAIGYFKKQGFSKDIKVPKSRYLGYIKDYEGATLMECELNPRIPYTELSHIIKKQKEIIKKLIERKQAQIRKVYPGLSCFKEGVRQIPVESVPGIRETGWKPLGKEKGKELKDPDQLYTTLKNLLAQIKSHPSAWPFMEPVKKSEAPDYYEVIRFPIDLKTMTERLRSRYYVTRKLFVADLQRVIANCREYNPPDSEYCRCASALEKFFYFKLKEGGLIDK
Sequence of UniProt P26358 (whole entry, looked up): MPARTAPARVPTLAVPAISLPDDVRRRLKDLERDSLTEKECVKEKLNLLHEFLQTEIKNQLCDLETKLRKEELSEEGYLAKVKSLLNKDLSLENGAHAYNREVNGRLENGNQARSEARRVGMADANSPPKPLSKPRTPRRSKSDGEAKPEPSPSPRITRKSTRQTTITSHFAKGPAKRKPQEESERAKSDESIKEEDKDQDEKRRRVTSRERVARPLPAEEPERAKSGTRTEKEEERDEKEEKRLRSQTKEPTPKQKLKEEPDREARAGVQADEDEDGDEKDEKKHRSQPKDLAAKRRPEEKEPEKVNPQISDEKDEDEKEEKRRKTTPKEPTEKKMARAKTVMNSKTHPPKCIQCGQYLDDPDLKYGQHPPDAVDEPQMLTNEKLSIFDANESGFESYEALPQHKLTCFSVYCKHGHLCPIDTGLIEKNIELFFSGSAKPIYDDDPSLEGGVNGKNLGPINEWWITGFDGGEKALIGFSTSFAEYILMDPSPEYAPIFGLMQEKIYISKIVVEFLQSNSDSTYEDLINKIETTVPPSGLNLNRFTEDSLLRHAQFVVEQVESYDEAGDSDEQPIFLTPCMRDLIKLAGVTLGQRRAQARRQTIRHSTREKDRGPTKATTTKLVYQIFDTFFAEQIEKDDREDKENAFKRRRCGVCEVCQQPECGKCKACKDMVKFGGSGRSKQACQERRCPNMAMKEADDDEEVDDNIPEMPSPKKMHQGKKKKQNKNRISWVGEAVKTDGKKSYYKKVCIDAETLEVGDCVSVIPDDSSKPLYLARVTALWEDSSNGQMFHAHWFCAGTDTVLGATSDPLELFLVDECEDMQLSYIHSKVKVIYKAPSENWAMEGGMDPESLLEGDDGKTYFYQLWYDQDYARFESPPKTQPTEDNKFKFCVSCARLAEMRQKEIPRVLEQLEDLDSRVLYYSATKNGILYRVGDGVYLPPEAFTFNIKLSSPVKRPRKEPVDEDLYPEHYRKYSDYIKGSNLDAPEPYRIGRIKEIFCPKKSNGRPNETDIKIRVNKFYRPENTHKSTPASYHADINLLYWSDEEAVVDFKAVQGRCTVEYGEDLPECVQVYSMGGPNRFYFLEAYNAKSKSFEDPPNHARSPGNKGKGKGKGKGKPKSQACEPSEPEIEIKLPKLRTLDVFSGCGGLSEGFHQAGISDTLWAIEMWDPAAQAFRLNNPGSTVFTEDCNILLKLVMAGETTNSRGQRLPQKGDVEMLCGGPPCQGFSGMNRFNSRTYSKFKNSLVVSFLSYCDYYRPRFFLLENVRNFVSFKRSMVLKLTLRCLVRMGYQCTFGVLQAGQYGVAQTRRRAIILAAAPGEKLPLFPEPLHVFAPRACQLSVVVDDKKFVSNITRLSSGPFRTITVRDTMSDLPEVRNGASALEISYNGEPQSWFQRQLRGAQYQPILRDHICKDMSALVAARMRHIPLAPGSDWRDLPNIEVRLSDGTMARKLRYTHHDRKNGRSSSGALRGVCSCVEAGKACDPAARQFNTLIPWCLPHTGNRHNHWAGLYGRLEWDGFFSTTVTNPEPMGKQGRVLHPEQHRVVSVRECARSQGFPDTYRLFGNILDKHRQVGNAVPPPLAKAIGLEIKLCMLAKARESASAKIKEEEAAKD
Sequence of UniProt P22607 (whole entry, looked up): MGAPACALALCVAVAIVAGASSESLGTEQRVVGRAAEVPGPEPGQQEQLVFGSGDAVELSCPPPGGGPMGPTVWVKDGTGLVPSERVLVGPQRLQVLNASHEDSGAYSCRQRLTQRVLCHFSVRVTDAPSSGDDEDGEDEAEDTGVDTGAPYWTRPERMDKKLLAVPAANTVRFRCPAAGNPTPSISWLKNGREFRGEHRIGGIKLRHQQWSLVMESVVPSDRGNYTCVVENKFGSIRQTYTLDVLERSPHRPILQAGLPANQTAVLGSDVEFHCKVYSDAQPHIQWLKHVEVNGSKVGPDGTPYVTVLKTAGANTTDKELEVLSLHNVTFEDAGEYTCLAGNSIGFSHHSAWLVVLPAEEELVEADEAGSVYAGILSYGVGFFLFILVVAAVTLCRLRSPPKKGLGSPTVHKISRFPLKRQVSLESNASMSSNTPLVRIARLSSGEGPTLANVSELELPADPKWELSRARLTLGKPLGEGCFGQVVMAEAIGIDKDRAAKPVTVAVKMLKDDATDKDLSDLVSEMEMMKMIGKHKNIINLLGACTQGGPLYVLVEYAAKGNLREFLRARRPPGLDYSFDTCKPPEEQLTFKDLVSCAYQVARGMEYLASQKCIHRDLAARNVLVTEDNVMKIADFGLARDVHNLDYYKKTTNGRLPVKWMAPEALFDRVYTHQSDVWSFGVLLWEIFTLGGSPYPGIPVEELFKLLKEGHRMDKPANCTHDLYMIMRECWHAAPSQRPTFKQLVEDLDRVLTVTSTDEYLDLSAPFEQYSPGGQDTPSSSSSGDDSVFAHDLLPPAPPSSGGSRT

CC(C)(C)NCCCNC(=O)c1ccnc(Br)c1 — IC50 (PHD finger protein 1 (Homo sapiens, UniProt O43189); methyl-lysine reader binding, inhibitor, AlphaScreen): > 100 µM
COc1ccc2nc3cc(Cl)ccc3c(NCCCCc3c(N)nc(N)nc3N)c2c1 — IC50 (Muscleblind-like protein 1, with cTNT RNA (Homo sapiens, UniProt Q9NR56); MBNL1-RNA binding, gel mobility shift; no tRNA, with: cTNT RNA, 15 nM MBNL1): 101 ± 26 µM
CC(C)CCn1c(OC2CCN(C(=O)C3CC3)CC2)nc2c1c(=O)n(C)c(=O)n2C — IC50 (HPGD (Homo sapiens, UniProt P15428)): > 57 µM
Cc1ccc2nc(-c3ccc4nc(-c5ccc(NC(=O)c6ccc7ccccc7c6)cc5)sc4c3)sc2c1S(=O)(=O)O — IC50 (Genome polyprotein, NS3 helicase domain (Hepatitis C virus genotype 1b, UniProt Q9WMX2); helicase activity, inhibitor, molecular beacon helicase): 2.7 ± 0.7 µM
N=C(N)NCCC[C@@H]1NC(=O)[C@H](Cc2c[nH]c3ccccc23)NC(=O)[C@H](CCCNC(=N)N)NC(=O)[C@H](Cc2c[nH]c3ccccc23)NC(=O)[C@H](CCCNC(=N)N)NC(=O)[C@H](Cc2c[nH]c3ccccc23)NC(=O)[C@H](CCCNC(=N)N)NC(=O)[C@H](Cc2c[nH]c3ccccc23)NC(=O)[C@H](CCCNC(=N)N)NC(=O)[C@H](Cc2c[nH]c3ccccc23)NC(=O)[C@H](CCCNC(=N)N)NC(=O)[C@H](Cc2c[nH]c3ccccc23)NC(=O)[C@H](CCCNC(=N)N)NC(=O)[C@H](Cc2c[nH]c3ccccc23)NC(=O)[C@H](CCCNC(=N)N)NC(=O)[C@H](Cc2c[nH]c3ccccc23)NC1=O — IC50 (ABL1; enzyme activity, inhibitor, radiometric): 0.41 µM
COCCNC(=O)Cn1nc(C(F)(F)F)c2c1CCCC2 — IC50 (Trypanothione synthetase (Trypanosoma brucei, UniProt Q586P2); enzyme activity, inhibitor): 30 µM
CCN(Cc1cccc(S(=O)(=O)O)c1)c1ccc(C(=C2C=CC(=[N+](CC)Cc3cccc(S(=O)(=O)O)c3)C=C2)c2ccc(O)cc2S(=O)(=O)O)cc1 — IC50 (Pannexin-1 (Panx1, Mus musculus, UniProt Q9JIP4); inhibitor): 0.27 µM
CC1(CN)CCN(c2cnc(Sc3cccc(Cl)c3Cl)c(N)n2)CC1 — IC50 (PTPN6 (Homo sapiens, UniProt P29350); enzyme activity, inhibitor, fluorescence): > 100 µM
CC[C@H](C)[C@H](NC(=O)[C@H](CC(C)C)NC(=O)c1ccco1)C(=O)NCC(=O)N[C@@H](CCCN=C(N)N)C(=O)N[C@@H](CC(C)C)C(=O)N[C@@H](CCCN)C(N)=O — IC50 (F2RL1 (Homo sapiens, UniProt P55085); ligand displacement): 3.29 µM
O=C(O[C@@H]1Cc2c(O)cc(O)cc2O[C@@H]1c1cc(O)c(O)c(O)c1)c1cc(O)c(O)c(O)c1 — IC50 (DNMT1 (Homo sapiens, UniProt P26358); enzyme activity, inhibitor): 40 to 200 µM
CCn1c(=S)[nH]c2cc3ccccc3cc2c1=O — IC50 (Genome polyprotein, protease (Hepatitis C virus genotype 1b, UniProt O92972); enzyme activity, inhibitor, FRET): 6.41 µM
CN(C)C/C=C/C(=O)Nc1ccc2nc(NCCCCCN(C)C)nc(NCCCCCCN(C)C)c2c1 — IC50 (CHD1, chromodomains (Homo sapiens, UniProt O14646)): 43 µM
CN1C(=O)/C=C/C(=O)N[C@@H](CC2CCCCC2)C(=O)N[C@@H](Cc2ccc(F)cc2)C(=O)N[C@@H](Cc2ccc([N+](=O)[O-])cc2)C(=O)NCCC[C@H]1C(=O)O — IC50 (Proto-oncogene tyrosine-protein kinase Src, SH3-SH2-kinase domain (SRC, Gallus gallus, UniProt P00523); enzyme activity, inhibitor, Z'-LYTE FRET; Src residues 83-533, with: 50 µM ATP): ≤ 0.004 µM
CC(=O)NCC(=O)N[C@@H](CC(=O)O)C(=O)N[C@@H](Cc1ccc(O)cc1)C(=O)N[C@@H](CO)C(=O)N[C@@H](Cc1cnc[nH]1)C(=O)N[C@H]1CSSC[C@@H](C(=O)N[C@H](C(=O)N[C@@H](Cc2ccc(O)cc2)C(=O)N2CCC[C@H]2C(=O)N[C@@H](CC(=O)O)C(=O)N2CCC[C@H]2C(=O)N[C@@H](CCC(=O)O)C(=O)NCC(=O)NCC(=O)NCC(N)=O)[C@@H](C)O)NC(=O)[C@H](CCCCN)NC(=O)[C@H](Cc2c[nH]c3ccccc23)NC(=O)[C@H](Cc2c[nH]c3ccccc23)NC(=O)[C@@H]2CCCN2C(=O)[C@H](Cc2ccc(O)cc2)NC(=O)[C@H](Cc2ccc(O)cc2)NC(=O)[C@H](CCCNC(=N)N)NC(=O)[C@H](CC(C)C)NC(=O)[C@@H]2CCCN2C(=O)[C@H](CO)NC1=O — IC50 (ACE (Homo sapiens, UniProt P12821); inhibitor): 3.16 µM
CC(C)NCc1ccc(C[C@@H]2NC(=O)[C@@H](Cc3c[nH]c4ccccc34)NC(=O)[C@H](Cc3ccccc3)NC(=O)[C@H](NC(=O)[C@@H](N)Cc3ccc(Cl)cc3)CSSC[C@@H](C(=O)N[C@@H](Cc3ccc4ccccc4c3)C(N)=O)NC(=O)[C@H](Cc3ccc(O)c(I)c3)NC2=O)cc1 — IC50 (SSTR1 (Homo sapiens, UniProt P30872); ligand displacement, radioligand; cell membranes): > 1 µM
CCCCCCCCCCCCCCCC(=O)OCCN1CCN(c2cc(Nc3ncc(C(=O)Nc4c(C)cccc4Cl)s3)nc(C)n2)CC1 — IC50 (ABL1): 0.68 µM
CC(C)(C)COCCCCCN1C[C@H](O)[C@@H](O)[C@H](O)[C@H]1CO — IC50 (Ugcg (Mus musculus, UniProt O88693); enzyme activity in cells, inhibitor, fluorescence): 5.05 µM
Cc1ccc2oc(-c3c4c(N)n[nH]c(=O)c4nn3-c3ccc(NC(=O)/C=C/CN(C)C)cc3)c(C)c2c1 — IC50 (FGFR3 (Homo sapiens, UniProt P22607); enzyme activity, inhibitor, ELISA): 0.0373 µM
COc1ccc(C(=O)Nc2n[nH]c3ccc(NC(=O)C(CCN)c4cccc(Cl)c4)cc23)cc1 (centres unmarked) — IC50 (Tyrosine-protein kinase HCK, SH2 (HCK, Homo sapiens, UniProt P08631, Q523E/Q524E/Q525I); enzyme activity, inhibitor): 3.1 µM
O=S(=O)(O)C1CCNCC1 — IC50 (SLC6A6 (Homo sapiens, UniProt P31641); transporter uptake, inhibitor, radiometric): 270 µM
COC(=O)c1ccc(N2CCN(c3cc(C)nc(C)n3)CC2)cc1 — IC50 (Phosphatidylinositol 3,4,5-trisphosphate 5-phosphatase 1, Ptase-C2 domains (INPP5D, Homo sapiens, UniProt Q92835); enzyme activity, inhibitor): 44 µM
CC(C)c1ccc(CN2CCN(CC(=O)c3ccc4[nH]c(=O)[nH]c4c3)CC2)cc1 — IC50 (APOBEC3G (Homo sapiens, UniProt Q9HC16); enzyme activity, inhibitor; pH 6): 70 µM
Cc1noc(C)c1N(C)S(=O)(=O)c1ccc(C(=O)O)cc1Br — IC50 (DNA repair protein RAD52 homolog, with RPA and ssDNA (RAD52, Homo sapiens, UniProt P43351); inhibitor, FRET): 96.9 ± 10 µM
Cc1ccc(-c2nnn(CC(=O)C(C)(C)C)n2)cc1Cl — IC50 (Trypanothione synthetase (Trypanosoma brucei, UniProt Q586P2); enzyme activity, inhibitor): 7.2 µM
Cc1ccccc1-c1cc(N2CCN(Cc3ccccc3)CC2)ccc1N(C)C(=O)C(C)(C)c1cc(C(F)(F)F)cc(C(F)(F)F)c1 — IC50 (TACR1 (Homo sapiens, UniProt P25103); nuclear ERK activity, antagonist, FRET biosensor; HEK293T; 30 to 90 min preincubation, with: substance P 10 nM): 0.316 µM
O=C1/C=C\C(=O)N[C@@H](CC2CCCCC2)C(=O)N[C@@H](Cc2ccccc2)C(=O)N[C@@H](CCCNC(=O)c2cnccn2)C(=O)NCC[C@@H](C(=O)O)N1 — IC50 (HCK (Homo sapiens, UniProt P08631); enzyme activity, inhibitor, absorbance): 0.86 µM
CC(C)(C)c1ccc(CSc2nc(-c3cccs3)cc(-c3ccc(Cl)cc3)c2C#N)cc1 — IC50 (KAT2A (Homo sapiens, UniProt Q92830); enzyme activity, inhibitor, radiometric): > 100 µM
CCCNC(=O)Cn1nc(C(F)(F)F)c2c1CCCC2 — IC50 (Trypanothione synthetase (Trypanosoma brucei, UniProt Q586P2); enzyme activity, inhibitor): 13 µM
CCOC1=CC(=O)c2cc3c(cc2C1=O)CCCC3(C)C — IC50 (DNA topoisomerase IB (Leishmania donovani, UniProt A0A3Q8IHS4+Q8WQM6); DNA relaxation activity, inhibitor; with: supercoiled plasmid DNA): > 100 µM
N#C[C@@H]1CCCN1C(=O)CNC(=O)c1ccnc2ccc(/C=C/C(=O)NCc3cn(CCOCCOCCOCCNC(=O)CCCC[C@@H]4SC[C@@H]5NC(=O)N[C@@H]54)nn3)cc12 — IC50 (FAP (Homo sapiens, UniProt Q12884); enzyme activity, inhibitor, fluorescence; with preincubation): 0.0092 µM
Cc1oc2nc[nH]c(=O)c2c1C(=O)N(C)CC12CC3CC(CC(C3)C1)C2 — IC50 (Trypanothione synthetase (Trypanosoma brucei brucei, UniProt Q586P2); enzyme activity, BIOMOL Green phosphate release; 1 h preincubation): 1 µM and 1.2 µM
CCC(NC(=O)C(CC(C)C)NC(=O)NCc1ccccc1)C(=O)C(=O)NCc1cc(OC)cc(OC)c1 (centres unmarked) — IC50 (Calpain-2 catalytic subunit (Capn2, Mus musculus, UniProt O08529); enzyme activity, inhibitor; mouse pons-cerebellum membranes; with: calcium 2 mM): 0.106 µM

For quick reference, copied from above:
CCn1c(=S)[nH]c2cc3ccccc3cc2c1=O — IC50 (Genome polyprotein, protease (Hepatitis C virus genotype 1b, UniProt O92972); enzyme activity, inhibitor, FRET): 6.41 µM
CN(C)C/C=C/C(=O)Nc1ccc2nc(NCCCCCN(C)C)nc(NCCCCCCN(C)C)c2c1 — IC50 (CHD1, chromodomains (Homo sapiens, UniProt O14646)): 43 µM
